Assay results pooled from the literature.
Every numbered part comes from another study and shows a few of its results, in no order.

Block 1 — technique: protein binding microarray; molecule type: double-stranded DNA, one strand shown; matrix: in vitro; concentration: not given; baseline: not given; direction: higher = stronger binding
Target: Histone acetyltransferase KAT6A, both winged helices, GST fusion (KAT6A, Homo sapiens, UniProt Q92794, residues 1-181)
Setting: 8-mer, flanks averaged, mean of 2 arrays, mostly near background
Construct (chain): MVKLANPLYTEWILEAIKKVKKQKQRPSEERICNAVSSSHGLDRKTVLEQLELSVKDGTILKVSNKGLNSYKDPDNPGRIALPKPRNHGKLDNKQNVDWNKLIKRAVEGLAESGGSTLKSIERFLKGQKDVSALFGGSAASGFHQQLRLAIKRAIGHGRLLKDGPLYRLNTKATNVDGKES
| Sequence | E-score |
| --- | --- |
| ATTTGAAC | 0.0226 |
| ATCAAACG | 0.141 |
| GTACAATA | 0.0589 |
| ATGGGGTA | -0.229 |
| CGGAATTA | 0.132 |
| CATTCGCG | 0.195 |
| AGGTGGGG | -0.262 |
| CCCGATCA | 0.0881 |
| CGAGGAAG | -0.0661 |
| AGCAGTCG | 0.0444 |
| AGCTACTG | -0.229 |
| AGCGATAG | -0.0636 |
| CAAGGTAA | 0.0304 |
| AGAACATC | -0.0546 |
| AACAAAAC | -0.0552 |
| GCCTCAGA | 0.109 |
| GGTTACGA | 0.115 |

Block 2 — technique: protein-binding microarray; molecule type: double-stranded DNA, one strand shown; matrix: in vitro; concentration: not given; direction: higher = stronger binding
Target: Microphthalmia-associated transcription factor, full length (MITF, Homo sapiens, UniProt O75030-10, residues 1-413)
Setting: k-mer, scored over probes, only values ≥0.25
Construct (chain): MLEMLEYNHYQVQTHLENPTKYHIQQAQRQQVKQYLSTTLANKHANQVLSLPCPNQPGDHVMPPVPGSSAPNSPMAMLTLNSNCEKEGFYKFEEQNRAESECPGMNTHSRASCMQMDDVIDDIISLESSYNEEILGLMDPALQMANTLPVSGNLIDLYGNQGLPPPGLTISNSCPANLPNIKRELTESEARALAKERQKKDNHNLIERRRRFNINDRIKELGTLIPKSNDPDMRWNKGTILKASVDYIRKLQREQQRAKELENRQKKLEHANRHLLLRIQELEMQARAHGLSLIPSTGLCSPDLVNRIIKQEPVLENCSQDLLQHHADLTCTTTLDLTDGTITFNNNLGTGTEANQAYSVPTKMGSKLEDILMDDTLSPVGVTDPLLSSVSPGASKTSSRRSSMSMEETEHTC
| Sequence | E-score |
| --- | --- |
| CGTGATA | 0.382 |
| CACGGGA | 0.451 |
| CGCGTGA | 0.478 |
| CATGCAC | 0.339 |
| CGTGACC | 0.474 |
| ACGTGGC | 0.286 |
| GTGATCA | 0.313 |
| GATCACA | 0.366 |
| ATCACAT | 0.415 |
| AACCCCA | 0.316 |
| CGTGCTA | 0.26 |
| ATGATGA | 0.292 |
| CGACACG | 0.26 |
| CATGTCA | 0.336 |
| GGTCACA | 0.374 |
| ACATCAC | 0.32 |
| CCCACCC | 0.251 |
| CACGAGA | 0.461 |
| ACGCGTG | 0.387 |
| ACGTGCA | 0.289 |
| TACATGA | 0.263 |
| GAGTCAC | 0.311 |
| AGGTCAC | 0.304 |
| ACATGAA | 0.332 |
| ACGTGCG | 0.388 |

Block 3 — technique: RNA Bind-n-Seq; molecule type: RNA; matrix: in vitro; concentration: 365 nM; baseline: no-protein control; direction: higher = stronger binding
Target: RNA binding protein fox-1 homolog 2, RRM domain, GST-SBP tag (RBFOX2, Homo sapiens, UniProt O43251-10, residues 100-194)
Setting: natural RNA segment, single round, ends assumed
All sequences stand within: GGGAGUUCUACAGUCCGACGAUC … UGGAAUUCUCGGGUGCCAA
Target sequence (chain): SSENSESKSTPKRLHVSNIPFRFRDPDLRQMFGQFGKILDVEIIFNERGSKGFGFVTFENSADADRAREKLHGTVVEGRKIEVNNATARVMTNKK
| Sequence | RBNS enrichment (R) |
| --- | --- |
| GGGAGAUAAUUAUCAGUCAUGAGGAAAGACACAGAUUUCGGUCAUAAAGAAUGUAAGGGCUAUAAGUAGAAACUUUCUAUAACCUAAAUGAUGUUAUAGAAUUAUUUUUG | 3.6 |
| GAGCGUCCAACUGUAUAUUUUUUACUUUUAUAGAUUUUAAAACUGAUCCUUUAUAUGUGUUUGGAGCUAUGAUAAGUUUUAUGGCAAGCAGUUGGUAUUGUUAACUUUUU | 0.818 |
| GCCCUCUUGCCUGUCAUCCCAACCCUGCUGCUUCUCUGUAAAAGGUUGUUUCUUUACUAGCAGAAAUCAGUCUGCAGGGAGGGGUAGUGCGUGUAUCUCACUGUUUUCCG | 1.04 |
| UCUCUCCCUUCCCUUACCUGGCCCCUUGGUGCUCCUUCAGCAUUUGUGCUGUCUACCUCUCACUGGGUCCUGGUGGGGGUCGGGCUCCCUUCUCCUGGGGUGAUUGAUGG | 0.4 |
| AAGAGACAGAGACAGAUGGGGUGAGGGGGGCAUUUGAGCUCCUAUGUUUUGUUCCCUAUUAUAGAGUAUAUGCAAAAUUUGUCCCAGAUCUUCUUUGACUUUGUGCUUGC | 1.08 |
| GAAAAUUGUAACCAAAUUCAUACUUUGUAUAAUUUUUGAUAUCAUGAUCACAGGUGAUUCACACGUACACACAUAAACACACCCACCAGUGCAGCCUGAAGUAACUCCCA | 0.357 |
| GUCCUGAGUAGGAGUCCAGGACUCCCACUGUCUCAAUCUGCAAAUUGUUCCUAUCCAGGUUCAGGGCCUUCAGGGGGCCUCUUUUCAUUUUCUCCCACAGGCCUCUCUUU | 0.814 |
| GUUGCACUUGGUGGACCGUGCCUGGGAGCGCUCGCAUGCCCCCUGGCUUCAGAAGUCAUGUCAGUGUCUCUGUAGACAAACUCCACUGUACAUCUUGGAUUAAUCUUCUG | 0.495 |
| UUCAUUUAUAAUUUACAAAAGUAAAGCAUUUAUUAGUGUCUGAUUUAAGAAUGUAAAGUGAUUCUGUAUCAAUGUAAAUAAGAUGAUCUACUACAAAAGAUAUUUAAAAU | 0.734 |
| ACGUCACAGAACACCCAGGAAAGGGGAUUUCUGUGGUAUCACCGAGAACAUGUUAGCAGUCUGUCAGACCUGAGCUCUGGCAUGUGCGACAGCACGUUACUAAAGCAGUU | 0.925 |
| UAAACUAUUUUUGACAUGUUCAUAUUUUUAUAACUUAAGAAAUAAAAUAAAAGCUGCAUUUUCACAAGUUUUCUCAAGUCUUUCUUAAGGUUUUUUUGGUUUUGUAUUUA | 1.61 |
| CCAAUGCAUAGUUUGGCAGAAAAAUCAGCCGUUCAUUUAGAAGAAUCUUAGCAGAGAUUGGGAUGCCUUACUCAAUAAAGCUAAGAUGACUAUGCUGCUGGCUGUCUUUG | 0.664 |

Block 4 — technique: aptamer microarray, sandwich; molecule type: DNA with 2'F-ANA; matrix: in vitro; concentration: 200 nM; together with: Cy3 exosite-II aptamer, 400 nM; direction: higher = stronger binding; sequence: GGTTGGTGTGGTTGG
Target: Prothrombin, mature alpha-thrombin (F2, Homo sapiens, UniProt P00734)
Setting: whole 15-mer aptamer, many near background
| Modification | mean fluorescence intensity |
| --- | --- |
| 2'F-ANA at 1 3 4 5 8 9 11 12 13 15 | 69.9 a.u. |
| 2'F-ANA at 2 3 7 9 11 | 653 a.u. |
| 2'F-ANA at 5 6 8 11 12 | 136 a.u. |
| 2'F-ANA at 10 11 12 13 14 15 | 102 a.u. |
| 2'F-ANA at 1 3 4 7 9 10 11 13 14 15 | 52 a.u. |
| 2'F-ANA at 2 3 6 9 10 12 | 390 a.u. |
| 2'F-ANA at 2 11 15 | 380 a.u. |
| 2'F-ANA at 5 11 15 | 60.1 a.u. |
| 2'F-ANA at 1 2 3 6 9 10 13 14 15 | 56.6 a.u. |
| 2'F-ANA at 1 3 4 7 8 10 11 12 14 | 52.3 a.u. |
| 2'F-ANA at 2 3 7 8 9 11 12 | 1040 a.u. |
| 2'F-ANA at 2 3 5 8 10 11 14 15 | 52.3 a.u. |
| 2'F-ANA at 2 3 7 9 10 11 15 | 323 a.u. |
| 2'F-ANA at 1 2 3 4 8 9 14 | 72.2 a.u. |
| 2'F-ANA at 1 3 9 11 13 14 | 79.2 a.u. |
| 2'F-ANA at 1 8 11 12 14 15 | 70.8 a.u. |
| 2'F-ANA at 1 2 3 5 9 10 11 12 13 15 | 79.2 a.u. |
| 2'F-ANA at 1 2 4 5 6 8 12 13 14 | 50.9 a.u. |
| 2'F-ANA at 1 3 5 9 14 15 | 46 a.u. |
| 2'F-ANA at 2 3 5 6 7 8 10 | 50.6 a.u. |
| 2'F-ANA at 2 3 5 7 8 9 11 13 14 | 51.8 a.u. |
| 2'F-ANA at 1 3 4 6 8 9 12 15 | 390 a.u. |
| 2'F-ANA at 2 3 5 8 10 12 14 15 | 48.5 a.u. |
| 2'F-ANA at 3 4 7 9 10 11 12 13 | 312 a.u. |
| 2'F-ANA at 4 6 7 8 9 11 12 13 15 | 277 a.u. |

Block 5 — technique: protein-binding microarray; molecule type: double-stranded DNA, one strand shown; matrix: in vitro; concentration: 940 nM top; setting: 60-bp whole probe; together with: salmon DNA 0.4 mg/ml; baseline: random background probes; direction: higher = stronger binding; all sequences stand within: GCCTAGCAC … GTCTTGATTCGCTTGACGCTGCTG
Target: Interferon regulatory factor 5, full length, phosphomimetic (IRF5, Homo sapiens, UniProt Q13568-2, residues 1-514, S451D/S453D/S456D/S462D)
| Sequence | fitted relative affinity [z-score] |
| --- | --- |
| GACGGTATCCTTTTCCTGAAGTGCTAG | 0.421 |
| TCATGTTTTTTTCTACTTCTGTGCTAG | 1.45 |
| ATGCATTGTTATTTGTCAATGTGCTAG | 0.179 |
| TCAGGTCTCGGTCTCGGTTAGTGCTAG | 5.13 |
| GACCGTATCCTTCTCCTGACGTGCTAG | 0.588 |
| TACAATTTGCTTTAGTCATTGTGCTAG | -0.36 |
| TTTTTTCTACTTCTCTTTTGGTGCTAG | 1.94 |
| GACGGTTTCCTTATCCTGGCGTGCTAG | 2.38 |
| GACGCTATCGGGACTGGGGACGTGCTA | -0.122 |
| CATTATTTCAATGCAAGGTGGTGCTAG | 0.241 |
| TCATATATGTGATTAAAACTGTGCTAG | 0.274 |
| TTAGGTTTCCTTTTTCTTTAGTGCTAG | 2.58 |
| TCACCTTTTCACTTTACACTGTGCTAG | 1.86 |
| GACGGTTTCGGGTATCGAGACGTGCTA | 9.06 |
| GAGGGGGCAGGGACTCAGGGGTGCTAG | 1.64 |
| TAGTTTTACTTTCTATGTCTGTGCTAG | 3.29 |
| TTCGAACTGGGGTATCGATTAGTGCTA | 3.14 |
| TTAGATTTCAGTTTCCATTAGTGCTAG | 1.99 |
| TTAGGACTGGGGCATCGGTTAGTGCTA | 0.0385 |
| GACGAACTGAGTATCGCGACGTGCTAG | -0.0993 |

Some of these lines once more (block 1):
| Sequence | E-score |
| --- | --- |
| CGAGGAAG | -0.0661 |
| AGCAGTCG | 0.0444 |
| AGCTACTG | -0.229 |
| AGCGATAG | -0.0636 |
| CAAGGTAA | 0.0304 |
| AGAACATC | -0.0546 |
